# Results collected from several papers.
# Every numbered part comes from another study and shows a few of its results, in no order.
# Chain of UniProt P10721 (whole entry, unmodified, looked up): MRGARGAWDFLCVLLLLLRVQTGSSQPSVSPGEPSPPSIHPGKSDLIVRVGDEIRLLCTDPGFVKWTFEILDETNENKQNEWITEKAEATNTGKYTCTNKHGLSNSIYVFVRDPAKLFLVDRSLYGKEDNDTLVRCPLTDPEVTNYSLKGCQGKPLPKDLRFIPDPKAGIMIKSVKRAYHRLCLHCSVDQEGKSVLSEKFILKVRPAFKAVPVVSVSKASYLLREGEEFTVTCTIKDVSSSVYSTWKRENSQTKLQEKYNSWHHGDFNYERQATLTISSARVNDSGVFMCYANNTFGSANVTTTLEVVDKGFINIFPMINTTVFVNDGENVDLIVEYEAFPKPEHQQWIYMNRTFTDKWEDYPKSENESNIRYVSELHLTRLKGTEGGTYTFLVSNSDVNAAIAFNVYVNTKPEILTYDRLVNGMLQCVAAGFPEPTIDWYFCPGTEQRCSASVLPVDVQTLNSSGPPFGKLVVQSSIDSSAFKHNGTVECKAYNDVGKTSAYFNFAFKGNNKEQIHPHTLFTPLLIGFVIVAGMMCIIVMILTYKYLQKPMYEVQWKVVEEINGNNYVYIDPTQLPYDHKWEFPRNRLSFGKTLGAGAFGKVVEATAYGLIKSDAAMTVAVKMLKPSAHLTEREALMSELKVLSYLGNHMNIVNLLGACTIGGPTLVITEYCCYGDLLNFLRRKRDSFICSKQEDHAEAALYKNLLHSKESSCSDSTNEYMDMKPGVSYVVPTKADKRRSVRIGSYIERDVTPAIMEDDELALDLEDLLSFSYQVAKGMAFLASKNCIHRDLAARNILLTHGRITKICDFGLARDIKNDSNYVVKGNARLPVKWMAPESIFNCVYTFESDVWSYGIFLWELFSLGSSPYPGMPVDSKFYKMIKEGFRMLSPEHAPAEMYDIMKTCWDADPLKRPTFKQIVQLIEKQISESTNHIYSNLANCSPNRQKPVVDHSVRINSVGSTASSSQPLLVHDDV
# Chain of UniProt Q99558 (whole entry, looked up): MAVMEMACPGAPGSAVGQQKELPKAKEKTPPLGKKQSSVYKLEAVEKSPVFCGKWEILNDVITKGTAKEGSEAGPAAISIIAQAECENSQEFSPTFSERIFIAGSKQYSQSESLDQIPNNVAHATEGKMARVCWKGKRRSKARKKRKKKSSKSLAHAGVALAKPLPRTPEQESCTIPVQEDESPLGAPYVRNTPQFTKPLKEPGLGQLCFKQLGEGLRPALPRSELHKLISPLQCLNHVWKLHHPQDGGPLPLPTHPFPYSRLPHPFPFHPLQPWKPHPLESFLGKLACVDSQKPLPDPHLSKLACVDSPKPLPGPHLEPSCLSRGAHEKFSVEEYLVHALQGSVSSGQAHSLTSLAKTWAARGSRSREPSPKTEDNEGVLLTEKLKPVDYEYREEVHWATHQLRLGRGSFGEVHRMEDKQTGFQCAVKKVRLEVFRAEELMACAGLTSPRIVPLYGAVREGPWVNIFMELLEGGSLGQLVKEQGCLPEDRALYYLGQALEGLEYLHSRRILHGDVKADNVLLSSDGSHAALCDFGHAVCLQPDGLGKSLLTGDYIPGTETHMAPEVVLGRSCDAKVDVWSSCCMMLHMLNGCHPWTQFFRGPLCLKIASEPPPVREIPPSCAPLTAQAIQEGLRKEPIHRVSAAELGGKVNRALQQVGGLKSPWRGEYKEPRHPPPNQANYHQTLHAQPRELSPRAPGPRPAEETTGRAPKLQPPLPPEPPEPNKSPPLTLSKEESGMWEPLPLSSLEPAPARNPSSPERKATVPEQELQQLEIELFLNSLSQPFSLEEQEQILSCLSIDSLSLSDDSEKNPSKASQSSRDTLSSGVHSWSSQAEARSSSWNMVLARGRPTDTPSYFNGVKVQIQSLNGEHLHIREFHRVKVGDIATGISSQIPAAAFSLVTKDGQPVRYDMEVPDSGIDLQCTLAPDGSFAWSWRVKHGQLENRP
# Chain of UniProt Q16620 (whole entry, looked up): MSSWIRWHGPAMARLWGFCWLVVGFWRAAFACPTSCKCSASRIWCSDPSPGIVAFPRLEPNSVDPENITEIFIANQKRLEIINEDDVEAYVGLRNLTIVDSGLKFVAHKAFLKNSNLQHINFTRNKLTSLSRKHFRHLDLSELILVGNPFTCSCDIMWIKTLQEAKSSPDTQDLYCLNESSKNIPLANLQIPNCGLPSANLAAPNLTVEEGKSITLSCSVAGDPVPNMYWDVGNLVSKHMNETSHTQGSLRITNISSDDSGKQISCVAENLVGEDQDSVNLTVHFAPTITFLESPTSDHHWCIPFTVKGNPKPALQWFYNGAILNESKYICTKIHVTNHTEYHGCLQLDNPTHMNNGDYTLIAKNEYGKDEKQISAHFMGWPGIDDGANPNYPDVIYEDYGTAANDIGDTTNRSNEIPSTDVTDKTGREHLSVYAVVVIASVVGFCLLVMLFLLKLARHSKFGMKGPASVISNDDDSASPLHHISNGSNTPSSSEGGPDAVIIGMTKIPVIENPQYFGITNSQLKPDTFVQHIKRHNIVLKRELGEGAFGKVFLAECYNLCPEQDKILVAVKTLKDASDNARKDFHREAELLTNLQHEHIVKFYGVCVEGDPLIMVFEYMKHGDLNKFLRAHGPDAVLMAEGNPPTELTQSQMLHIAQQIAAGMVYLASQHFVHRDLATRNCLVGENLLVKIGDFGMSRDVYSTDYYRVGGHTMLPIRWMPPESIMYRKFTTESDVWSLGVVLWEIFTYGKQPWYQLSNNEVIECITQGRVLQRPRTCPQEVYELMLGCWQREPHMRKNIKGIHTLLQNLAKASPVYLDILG
# Chain of UniProt P27361 (whole entry, looked up): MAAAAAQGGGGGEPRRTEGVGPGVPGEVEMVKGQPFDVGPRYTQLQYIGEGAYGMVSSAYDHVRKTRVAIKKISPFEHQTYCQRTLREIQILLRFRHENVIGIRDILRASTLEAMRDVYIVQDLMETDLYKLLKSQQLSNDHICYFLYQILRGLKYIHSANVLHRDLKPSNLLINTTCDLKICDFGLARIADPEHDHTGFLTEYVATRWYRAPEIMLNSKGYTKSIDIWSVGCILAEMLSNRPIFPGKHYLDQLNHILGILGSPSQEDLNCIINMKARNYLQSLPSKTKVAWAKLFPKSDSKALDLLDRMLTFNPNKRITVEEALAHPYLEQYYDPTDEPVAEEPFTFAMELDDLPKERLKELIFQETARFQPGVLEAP
# Chain of UniProt P11362 (whole entry, looked up): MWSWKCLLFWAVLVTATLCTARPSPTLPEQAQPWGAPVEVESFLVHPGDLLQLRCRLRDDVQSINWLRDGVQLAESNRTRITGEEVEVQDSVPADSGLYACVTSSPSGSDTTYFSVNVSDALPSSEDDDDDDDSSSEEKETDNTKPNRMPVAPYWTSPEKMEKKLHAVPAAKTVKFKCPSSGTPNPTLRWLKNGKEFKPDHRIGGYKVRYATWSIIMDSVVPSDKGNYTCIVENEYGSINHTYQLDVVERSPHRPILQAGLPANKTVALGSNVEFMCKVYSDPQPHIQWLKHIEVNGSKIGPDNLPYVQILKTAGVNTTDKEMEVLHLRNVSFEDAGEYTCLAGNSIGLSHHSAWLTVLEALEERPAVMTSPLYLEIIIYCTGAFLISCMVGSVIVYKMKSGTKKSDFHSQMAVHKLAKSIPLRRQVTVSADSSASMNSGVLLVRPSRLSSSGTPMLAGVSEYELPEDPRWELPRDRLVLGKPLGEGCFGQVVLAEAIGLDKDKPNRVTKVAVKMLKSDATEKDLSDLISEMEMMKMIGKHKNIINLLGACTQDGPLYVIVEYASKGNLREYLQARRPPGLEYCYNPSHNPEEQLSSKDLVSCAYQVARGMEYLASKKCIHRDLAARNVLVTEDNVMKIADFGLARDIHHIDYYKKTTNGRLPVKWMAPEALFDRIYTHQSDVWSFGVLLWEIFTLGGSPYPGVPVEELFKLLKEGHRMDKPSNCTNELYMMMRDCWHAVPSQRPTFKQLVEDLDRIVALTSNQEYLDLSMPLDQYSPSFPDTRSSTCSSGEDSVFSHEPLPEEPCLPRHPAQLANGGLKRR
# Chain of UniProt Q9NRM7 (whole entry, looked up): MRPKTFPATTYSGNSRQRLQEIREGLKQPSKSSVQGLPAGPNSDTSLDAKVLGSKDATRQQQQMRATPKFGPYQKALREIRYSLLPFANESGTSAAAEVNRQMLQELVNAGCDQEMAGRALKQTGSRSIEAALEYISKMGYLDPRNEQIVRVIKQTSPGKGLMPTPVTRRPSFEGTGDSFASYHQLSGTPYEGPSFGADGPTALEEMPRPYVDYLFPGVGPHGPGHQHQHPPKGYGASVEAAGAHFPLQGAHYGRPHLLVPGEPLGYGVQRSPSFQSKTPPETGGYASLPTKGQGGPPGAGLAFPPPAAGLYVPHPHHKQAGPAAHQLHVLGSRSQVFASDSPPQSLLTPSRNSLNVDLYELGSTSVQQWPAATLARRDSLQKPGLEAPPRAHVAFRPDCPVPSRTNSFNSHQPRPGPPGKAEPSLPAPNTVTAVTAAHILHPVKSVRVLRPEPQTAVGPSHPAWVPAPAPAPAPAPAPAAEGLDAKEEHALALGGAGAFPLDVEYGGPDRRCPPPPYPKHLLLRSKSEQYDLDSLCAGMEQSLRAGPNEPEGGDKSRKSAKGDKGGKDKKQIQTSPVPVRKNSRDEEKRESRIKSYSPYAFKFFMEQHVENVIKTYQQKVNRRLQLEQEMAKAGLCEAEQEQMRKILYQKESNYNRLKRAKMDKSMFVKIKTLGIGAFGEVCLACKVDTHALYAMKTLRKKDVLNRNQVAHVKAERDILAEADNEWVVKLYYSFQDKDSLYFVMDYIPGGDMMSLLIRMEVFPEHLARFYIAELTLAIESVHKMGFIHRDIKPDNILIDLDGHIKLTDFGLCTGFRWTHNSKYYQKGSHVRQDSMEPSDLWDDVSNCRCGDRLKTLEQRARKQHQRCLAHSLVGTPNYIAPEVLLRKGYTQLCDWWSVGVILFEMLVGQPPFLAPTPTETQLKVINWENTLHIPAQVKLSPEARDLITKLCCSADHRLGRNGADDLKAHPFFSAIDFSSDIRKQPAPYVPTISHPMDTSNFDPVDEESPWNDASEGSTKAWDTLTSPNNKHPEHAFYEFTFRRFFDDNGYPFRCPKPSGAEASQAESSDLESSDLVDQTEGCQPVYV

# Study 1
# Structure (SMILES): CC(C)[C@H](CO)Nc1nc(Nc2cccc(Cl)c2)c2ncn(C(C)C)c2n1
# Read-out: enzyme activity
# Mode: inhibitor
# Concentration: 0.5 µM
# Relative to: control
target,remaining activity [%]
"Macrophage-stimulating protein receptor (MST1R, Homo sapiens, UniProt Q04912)",90.6
"Fibroblast growth factor receptor 3 (FGFR3, Homo sapiens, UniProt P22607)",99.2
"Angiopoietin-1 receptor (TEK, Homo sapiens, UniProt Q02763)",93.8
"Fibroblast growth factor receptor 1 (FGFR1, Homo sapiens, UniProt P11362)",80.6
"Glycogen synthase kinase-3 beta (GSK3B, Homo sapiens, UniProt P49841)",103
"Serine/threonine-protein kinase A-Raf (ARAF, Homo sapiens, UniProt P10398)",96.5
"Ephrin type-A receptor 3 (EPHA3, Homo sapiens, UniProt P29320)",105
"Tyrosine-protein kinase Mer (MERTK, Homo sapiens, UniProt Q12866)",84.7
"Casein kinase I isoform gamma-2 (CSNK1G2, Homo sapiens, UniProt P78368)",32.4
"Mitogen-activated protein kinase kinase kinase 14 (MAP3K14, Homo sapiens, UniProt Q99558)",112
"Ribosomal protein S6 kinase alpha-2 (RPS6KA2, Homo sapiens, UniProt Q15349)",69.4
"Serine/threonine-protein kinase TAO2 (TAOK2, Homo sapiens, UniProt Q9UL54)",91.3
"Mitogen-activated protein kinase 3 (MAPK3, Homo sapiens, UniProt P27361)",104
"Rhodopsin kinase GRK7 (GRK7, Homo sapiens, UniProt Q8WTQ7)",88.8

# Study 2
# Target: Prothrombin, mature alpha-thrombin (F2, Homo sapiens, UniProt P00734)
# Method: aptamer microarray, sandwich
# Form: DNA with 2'F-ANA
# Medium: in vitro
# Concentration: 200 nM
# Setting: whole 15-mer aptamer, many near background
# With: Cy3 exosite-II aptamer, 400 nM
# Direction: higher = stronger binding
# Oligonucleotide: GGTTGGTGTGGTTGG
Modification,mean fluorescence intensity
2'F-ANA at 3 4 5 8 9 14,61.4 a.u.
2'F-ANA at 2 5 7 14 15,94.7 a.u.
2'F-ANA at 2 4 5 7 13 14 15,43.9 a.u.
2'F-ANA at 1 4 5 6 8 10 12 14,52 a.u.
2'F-ANA at 1 5 10 14,43.8 a.u.
2'F-ANA at 2 3 4 5 6 9 11 12 13,97.1 a.u.
2'F-ANA at 3 6 8 14 15,589 a.u.
2'F-ANA at 2 7 10 11 13,132 a.u.

# Study 3
# Target: RNA binding protein fox-1 homolog 2, RRM domain, GST-SBP tag (RBFOX2, Homo sapiens, UniProt O43251-10, residues 100-194)
# Method: RNA Bind-n-Seq
# Form: RNA
# Medium: in vitro
# Concentration: 365 nM
# Setting: natural RNA segment, single round, ends assumed
# Relative to: no-protein control
# Direction: higher = stronger binding
# All sequences stand within: GGGAGUUCUACAGUCCGACGAUC … UGGAAUUCUCGGGUGCCAA
# Residues (chain): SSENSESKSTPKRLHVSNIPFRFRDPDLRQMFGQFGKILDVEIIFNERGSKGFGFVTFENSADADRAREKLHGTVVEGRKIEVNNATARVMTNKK
Oligonucleotide,RBNS enrichment (R)
CUUGAAUCCUCUAUUAAUUACUGUGUGUGAGCCAGAGGGAGCUGUGGUAAGGGUUGGGCCCCCAGCCUGUAGGGAACUUUCUGGACUCCCACUCUUUGAAUCGAUAUAGG,0.491
CACAUAGUGAGUCCAAGGUCGGCCUGGACUGCACGAGAGUCUGUCUAGGAAUGCAGUUAGUAAAAGCCUGGCGUCUACUGCAGAGUAUGUAUACUUGGUGGUAGAGGGCU,0.442
AGGUACACUGUUUCCAUGUUAUGUUUCUACACAUUGCUACCUCAGUGCUCCUGGAAACUUAGCUUUUGAUGUCUCCAAGUAGUCCACCUUCAUUUAACUCUUUGAAACUG,0.335
CUAAAUUACCAGCAAAACAAACCACUCUCCUGUUUGAGUAAAAUGAGAAAGUUAAUAUGUGGCCUCCUUUUCUGAAGCCAGAUCAAACUGUUACCUUGUGUUCCACCUUG,0.324
ACUACUUGAUCAUUAUAUCAAGUGUAUUUUUGUACAUAAUAUAUAUUGGUUAGAAAAAAAUAGAUUGUCUAUUGAAAGAAAUUCUCUCUCUGCAGUAGAUUAUAUUUAUC,0.679
UCACCUGCUCCCUGCCCAUAUCUACCACAGGCCACUUUGGCAUGGUAUGUAAGCUGAGCUCUUCAUUCUGUCAUGAGAAGAGGACCAUGCUGCUAUCAUUUAUUUGGUCC,0.417
UGAGAACUGCUGCUCUAAGGCCUUCUGUAGAAGUCCAUUCCUAUCACAGUAAGGCUGAACUCUGAAAACUAUCCAUUAGAGCUCUGGUUCUGGGUGGGGAUAAGGAUGGG,0.425
UGAGAGACGGCAGACUGAGCAGAAUUCCUUUUUUGAGCACGAGAGCAUUACUAGAACCAUUGUCAAAGCAGUGGCAAGGGACGGAGAGGUCCCAACAGGAGUCAGGAAGA,1.51

# Study 4
# Compound: CN(C)c1ncnc(-c2ccc3nc(Nc4cc(CN5CCN(C(=O)CC(F)(F)F)CC5)ccn4)[nH]c3c2)c1Cl
# Read-out: cell-free assay
# Method: competition with immobilised ligand
# Concentration: 1 µM
target,remaining binding [%]
"Serine/threonine-protein kinase TAO1 (TAOK1, Homo sapiens, UniProt Q7L7X3)",77
"Cyclin-dependent kinase-like 1 (CDKL1, Homo sapiens, UniProt Q00532)",96
"Mast/stem cell growth factor receptor Kit (KIT, Homo sapiens, UniProt P10721)",100
"Mast/stem cell growth factor receptor Kit (KIT, Homo sapiens, UniProt P10721, T670I/V559D)",100
"Tyrosine-protein kinase ABL1, phosphorylated (ABL1, Homo sapiens, UniProt P00519, M351T)",43
"Serine/threonine-protein kinase LATS2 (LATS2, Homo sapiens, UniProt Q9NRM7)",53
"Mitogen-activated protein kinase kinase kinase 14 (MAP3K14, Homo sapiens, UniProt Q99558)",62
"Casein kinase I isoform alpha (CSNK1A1, Homo sapiens, UniProt P48729)",89
"BDNF/NT-3 growth factors receptor (NTRK2, Homo sapiens, UniProt Q16620)",63
"Non-receptor tyrosine-protein kinase TNK1 (TNK1, Homo sapiens, UniProt Q13470)",96
"Epidermal growth factor receptor (EGFR, Homo sapiens, UniProt P00533, G719S)",79
"Fibroblast growth factor receptor 4 (FGFR4, Homo sapiens, UniProt P22455)",92
"Dual specificity tyrosine-phosphorylation-regulated kinase 1A (DYRK1A, Homo sapiens, UniProt Q13627)",77
"SRSF protein kinase 2 (SRPK2, Homo sapiens, UniProt P78362)",76
"Activated CDC42 kinase 1 (TNK2, Homo sapiens, UniProt Q07912)",96
"Mast/stem cell growth factor receptor Kit (KIT, Homo sapiens, UniProt P10721, L576P)",87
"Homeodomain-interacting protein kinase 1 (HIPK1, Homo sapiens, UniProt Q86Z02)",74

# Excerpt of the above (study 2):
Modification,mean fluorescence intensity
2'F-ANA at 3 4 5 8 9 14,61.4 a.u.
2'F-ANA at 2 4 5 7 13 14 15,43.9 a.u.
2'F-ANA at 2 5 7 14 15,94.7 a.u.
